Published values from different studies.
Protocols differ between the studies behind these lines. Several values in a cell are separate wells, animals, samples, runs or records. ± marks the error that the study gave.
STS: Steryl-sulfatase (STS, Homo sapiens, UniProt P08842)
UniProt P08842, sequence (whole entry, looked up): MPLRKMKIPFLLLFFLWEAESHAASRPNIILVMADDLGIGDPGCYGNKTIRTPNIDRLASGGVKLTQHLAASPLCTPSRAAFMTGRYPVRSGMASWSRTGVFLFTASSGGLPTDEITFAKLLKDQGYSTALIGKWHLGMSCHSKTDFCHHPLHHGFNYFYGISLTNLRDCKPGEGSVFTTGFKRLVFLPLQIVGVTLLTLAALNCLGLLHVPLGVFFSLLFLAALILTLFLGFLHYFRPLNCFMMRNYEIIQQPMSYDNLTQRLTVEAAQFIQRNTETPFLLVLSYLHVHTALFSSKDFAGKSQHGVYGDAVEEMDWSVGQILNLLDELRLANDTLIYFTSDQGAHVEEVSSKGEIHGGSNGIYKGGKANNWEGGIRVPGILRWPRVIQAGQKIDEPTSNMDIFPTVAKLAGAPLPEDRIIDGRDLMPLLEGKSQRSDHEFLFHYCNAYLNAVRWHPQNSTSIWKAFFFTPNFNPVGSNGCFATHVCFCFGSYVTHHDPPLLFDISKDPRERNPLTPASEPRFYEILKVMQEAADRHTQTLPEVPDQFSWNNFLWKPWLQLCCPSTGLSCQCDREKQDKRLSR
Kir1 channel protein: Kir1 channel protein (Aedes aegypti, UniProt L0EQS9)
KCNJ13 M125R: Inward rectifier potassium channel 13 (KCNJ13, Homo sapiens, UniProt O60928, M125R)
UniProt O60928, sequence (whole entry, unmodified, looked up): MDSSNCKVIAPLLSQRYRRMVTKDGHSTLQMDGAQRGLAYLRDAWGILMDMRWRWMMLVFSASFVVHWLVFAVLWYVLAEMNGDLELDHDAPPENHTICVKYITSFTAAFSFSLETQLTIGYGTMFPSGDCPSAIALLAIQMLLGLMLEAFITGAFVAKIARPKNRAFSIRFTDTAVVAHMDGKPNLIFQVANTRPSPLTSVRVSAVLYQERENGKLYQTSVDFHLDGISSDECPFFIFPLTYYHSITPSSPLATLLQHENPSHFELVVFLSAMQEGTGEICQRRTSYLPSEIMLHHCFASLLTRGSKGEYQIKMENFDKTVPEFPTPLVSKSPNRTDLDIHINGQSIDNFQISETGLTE
MAL12: Alpha-glucosidase MAL12 (MAL12, Saccharomyces cerevisiae S288c, UniProt P53341)
UniProt P53341, sequence (whole entry, looked up): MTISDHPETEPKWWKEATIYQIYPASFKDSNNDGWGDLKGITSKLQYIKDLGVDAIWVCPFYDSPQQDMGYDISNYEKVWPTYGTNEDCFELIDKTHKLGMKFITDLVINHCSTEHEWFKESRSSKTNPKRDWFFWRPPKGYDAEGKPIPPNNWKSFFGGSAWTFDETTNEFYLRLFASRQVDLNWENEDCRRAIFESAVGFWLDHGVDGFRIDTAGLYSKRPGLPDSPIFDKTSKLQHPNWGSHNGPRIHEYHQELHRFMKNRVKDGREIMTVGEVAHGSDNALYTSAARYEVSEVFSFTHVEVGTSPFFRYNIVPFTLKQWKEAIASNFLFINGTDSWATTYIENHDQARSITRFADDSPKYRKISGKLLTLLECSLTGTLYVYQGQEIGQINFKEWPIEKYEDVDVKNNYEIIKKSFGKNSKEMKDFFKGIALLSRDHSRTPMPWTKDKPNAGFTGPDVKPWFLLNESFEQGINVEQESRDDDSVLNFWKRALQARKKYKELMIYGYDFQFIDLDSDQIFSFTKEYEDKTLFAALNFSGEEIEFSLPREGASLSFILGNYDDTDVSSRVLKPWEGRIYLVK
Inward rectifier potassium channel 4: Inward rectifier potassium channel 4 (Homo sapiens, UniProt P48050)
UniProt P48050, sequence (whole entry, looked up): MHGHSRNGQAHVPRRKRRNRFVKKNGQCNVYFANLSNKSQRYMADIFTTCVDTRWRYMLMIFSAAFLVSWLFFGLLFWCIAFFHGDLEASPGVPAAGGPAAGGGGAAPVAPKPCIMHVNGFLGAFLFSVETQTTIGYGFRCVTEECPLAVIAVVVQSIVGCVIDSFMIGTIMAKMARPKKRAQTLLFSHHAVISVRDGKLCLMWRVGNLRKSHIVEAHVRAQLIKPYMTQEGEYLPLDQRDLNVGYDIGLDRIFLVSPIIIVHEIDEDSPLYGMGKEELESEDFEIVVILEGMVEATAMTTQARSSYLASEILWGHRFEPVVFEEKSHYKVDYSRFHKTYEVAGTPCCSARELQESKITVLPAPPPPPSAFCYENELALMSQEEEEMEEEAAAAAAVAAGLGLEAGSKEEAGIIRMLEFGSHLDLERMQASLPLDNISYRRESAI
Urease: Urease (Canavalia ensiformis, UniProt P07374)
UniProt P07374, sequence (whole entry, looked up): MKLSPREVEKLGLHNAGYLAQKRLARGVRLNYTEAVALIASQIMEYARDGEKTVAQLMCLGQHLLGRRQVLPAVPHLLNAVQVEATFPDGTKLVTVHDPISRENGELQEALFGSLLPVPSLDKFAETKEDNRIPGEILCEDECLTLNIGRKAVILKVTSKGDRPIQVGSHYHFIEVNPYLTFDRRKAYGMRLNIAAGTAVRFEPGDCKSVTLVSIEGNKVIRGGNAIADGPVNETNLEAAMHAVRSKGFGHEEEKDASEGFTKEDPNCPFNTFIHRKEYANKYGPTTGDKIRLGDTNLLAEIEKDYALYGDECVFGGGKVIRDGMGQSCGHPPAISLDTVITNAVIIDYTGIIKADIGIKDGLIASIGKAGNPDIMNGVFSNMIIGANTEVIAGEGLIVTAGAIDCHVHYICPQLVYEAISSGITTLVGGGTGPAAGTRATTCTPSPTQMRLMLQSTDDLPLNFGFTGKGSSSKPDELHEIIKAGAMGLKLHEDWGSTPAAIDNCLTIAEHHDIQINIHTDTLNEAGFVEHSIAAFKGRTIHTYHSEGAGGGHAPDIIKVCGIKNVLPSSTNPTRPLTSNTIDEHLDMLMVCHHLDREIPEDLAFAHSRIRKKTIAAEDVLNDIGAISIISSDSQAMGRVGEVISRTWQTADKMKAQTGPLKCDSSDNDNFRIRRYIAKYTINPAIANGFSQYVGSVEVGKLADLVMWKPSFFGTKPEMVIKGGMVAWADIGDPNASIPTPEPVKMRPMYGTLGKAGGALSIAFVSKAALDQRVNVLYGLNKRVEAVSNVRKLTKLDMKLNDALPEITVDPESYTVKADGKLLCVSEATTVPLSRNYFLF
UniProt P56524, sequence (whole entry, looked up): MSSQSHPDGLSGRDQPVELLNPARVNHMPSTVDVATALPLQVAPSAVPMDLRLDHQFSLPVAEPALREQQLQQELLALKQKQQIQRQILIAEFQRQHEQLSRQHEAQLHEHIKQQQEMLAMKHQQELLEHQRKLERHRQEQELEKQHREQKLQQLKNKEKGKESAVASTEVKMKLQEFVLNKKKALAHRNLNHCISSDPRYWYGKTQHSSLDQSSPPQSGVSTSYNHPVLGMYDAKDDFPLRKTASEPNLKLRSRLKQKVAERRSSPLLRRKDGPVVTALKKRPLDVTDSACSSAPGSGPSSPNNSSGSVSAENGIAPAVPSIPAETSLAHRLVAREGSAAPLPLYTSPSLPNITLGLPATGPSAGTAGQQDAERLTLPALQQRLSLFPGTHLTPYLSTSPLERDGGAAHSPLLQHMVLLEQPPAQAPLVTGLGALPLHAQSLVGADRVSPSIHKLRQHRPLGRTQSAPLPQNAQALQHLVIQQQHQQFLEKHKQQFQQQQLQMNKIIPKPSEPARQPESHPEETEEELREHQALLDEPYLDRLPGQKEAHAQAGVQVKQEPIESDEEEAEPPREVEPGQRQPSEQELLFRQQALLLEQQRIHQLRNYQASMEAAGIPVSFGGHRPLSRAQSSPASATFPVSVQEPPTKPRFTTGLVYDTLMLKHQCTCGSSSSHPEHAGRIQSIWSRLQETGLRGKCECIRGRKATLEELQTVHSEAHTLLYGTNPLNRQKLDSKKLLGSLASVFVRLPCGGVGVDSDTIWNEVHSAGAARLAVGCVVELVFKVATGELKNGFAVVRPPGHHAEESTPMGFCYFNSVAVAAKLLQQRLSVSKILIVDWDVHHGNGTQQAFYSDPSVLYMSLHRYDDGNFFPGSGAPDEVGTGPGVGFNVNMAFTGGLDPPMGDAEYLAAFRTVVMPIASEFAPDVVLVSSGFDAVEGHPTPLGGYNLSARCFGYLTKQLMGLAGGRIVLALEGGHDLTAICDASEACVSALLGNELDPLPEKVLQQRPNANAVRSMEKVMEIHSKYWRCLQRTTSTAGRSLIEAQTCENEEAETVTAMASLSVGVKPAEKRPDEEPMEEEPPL
UniProt O94956, sequence (whole entry, looked up): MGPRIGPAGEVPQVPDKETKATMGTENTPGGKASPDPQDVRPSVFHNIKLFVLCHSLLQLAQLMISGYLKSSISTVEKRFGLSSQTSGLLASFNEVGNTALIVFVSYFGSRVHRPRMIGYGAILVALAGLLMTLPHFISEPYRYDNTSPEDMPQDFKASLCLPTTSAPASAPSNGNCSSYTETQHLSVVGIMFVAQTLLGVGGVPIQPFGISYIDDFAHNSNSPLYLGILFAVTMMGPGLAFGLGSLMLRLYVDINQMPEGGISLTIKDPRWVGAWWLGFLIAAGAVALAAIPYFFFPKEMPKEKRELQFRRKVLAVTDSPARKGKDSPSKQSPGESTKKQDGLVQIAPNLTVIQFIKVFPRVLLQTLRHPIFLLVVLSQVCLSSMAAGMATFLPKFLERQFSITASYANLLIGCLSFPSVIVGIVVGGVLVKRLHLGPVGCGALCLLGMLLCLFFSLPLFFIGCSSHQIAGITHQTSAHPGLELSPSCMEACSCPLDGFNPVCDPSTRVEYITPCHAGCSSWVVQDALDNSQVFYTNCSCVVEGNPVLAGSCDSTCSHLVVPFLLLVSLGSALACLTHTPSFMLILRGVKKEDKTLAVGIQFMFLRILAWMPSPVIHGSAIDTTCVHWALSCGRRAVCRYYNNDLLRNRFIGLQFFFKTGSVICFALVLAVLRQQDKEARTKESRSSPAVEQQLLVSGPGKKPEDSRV
UniProt Q8WXS5, sequence (whole entry, looked up): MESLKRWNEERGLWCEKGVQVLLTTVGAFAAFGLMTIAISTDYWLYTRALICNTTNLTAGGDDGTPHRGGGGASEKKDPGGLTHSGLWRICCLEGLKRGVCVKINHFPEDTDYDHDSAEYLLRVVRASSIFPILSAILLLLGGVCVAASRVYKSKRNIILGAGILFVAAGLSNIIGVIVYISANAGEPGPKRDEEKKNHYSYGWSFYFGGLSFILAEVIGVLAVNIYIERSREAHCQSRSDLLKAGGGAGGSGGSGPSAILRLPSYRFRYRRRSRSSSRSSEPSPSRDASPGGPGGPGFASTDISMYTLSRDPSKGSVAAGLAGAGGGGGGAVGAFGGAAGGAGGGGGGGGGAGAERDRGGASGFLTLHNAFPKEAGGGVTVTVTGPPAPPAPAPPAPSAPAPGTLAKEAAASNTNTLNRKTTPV

Molecule	target	test	system	setting	IC50
C[C@]12CC[C@@H]3c4cc(OC(F)F)c(OS(N)(=O)=O)cc4CC[C@H]3[C@@H]1CC[C@@H]2OS(N)(=O)=O	STS	inhibitor	JEG-3		0.0037 µM
O=[N+]([O-])c1ccc(N2CCN(S(=O)(=O)c3ccc(F)cc3)CC2)cc1NCc1ccon1	Kir1 channel protein	ion flux, inhibitor, fluorescence			30.4 µM
Cc1ccc(OCC(O)Cn2c(=N)n(C)c3ccccc32)cc1 (stereo not drawn)	KCNJ13 M125R	ion flux, inhibitor			25.3 µM
VGNVYVKF	Mamu-B*052:01 (Macaca mulatta)	binding, competitor	peptide	added: radiolabelled probe peptide	0.0074 µM
N#CC1=C(N)Oc2c(c(=O)[nH]c3ccccc23)C1c1cccc(OCc2cn(Cc3ccc(F)cc3)nn2)c1 (stereo not drawn)	MAL12	enzyme activity			8.87 ± 0.03 µM
N=c1n(Cc2ccccc2)c2ccccc2n1CC(O)COc1ccc(Cl)cc1 (stereo not drawn)	Inward rectifier potassium channel 4	ion flux, inhibitor, fluorescence			4.2 µM
COc1cc(/C=N/NC(=O)COc2cc(C)cc3oc(=O)cc(C)c23)ccc1OCc1cn(Cc2ccc(Br)cc2)nn1	Urease	enzyme activity, inhibitor			11.2 ± 0.5 µM
CCOC(=O)C1=C(C)NC2=C(C(=O)CC(C)(C)C2)C1c1cc(Br)c(OCC)c(Br)c1 (stereo not drawn)	MAL12	enzyme activity, inhibitor, absorbance		pH 6.8	6.34 µM
NS(=O)(=O)Oc1ccc(C(c2ccc(Cl)cc2)n2cncn2)cc1Br (racemic)	STS	enzyme activity, inhibitor	JEG-3	1 h, added: [3H]oestrone sulfate	1.4 ± 0.234 µM
Cc1nc2ccccc2n1Cc1ccc(C(=O)NO)cc1	HDAC4 (Homo sapiens, UniProt P56524)			concentration not given	1.01 µM
O=C(Nc1ccc(C(=O)Nc2ccc(C(=O)Nc3ccc(S(=O)(=O)O)c4cc(S(=O)(=O)O)cc(S(=O)(=O)O)c34)cc2)cc1)Nc1ccc(C(=O)Nc2ccc(C(=O)Nc3ccc(S(=O)(=O)O)c4cc(S(=O)(=O)O)cc(S(=O)(=O)O)c34)cc2)cc1	SETD2 (Homo sapiens, UniProt Q9BYW2)	enzyme activity, inhibitor			1.1 µM
COC(=O)C1=C(C)NC(C)=C([N+](=O)[O-])[C@H]1c1ccccc1C(F)(F)F	CACNA1H (Homo sapiens, UniProt O95180)	calcium current, blocker, automated patch clamp	holding potential -90 mV	added: 60 s prepulse, -75 mV	10.8 ± 1.9 µM
O=c1cc(-c2cccc3ccccc23)[nH][nH]1	ALPL (Homo sapiens, UniProt P05186)	enzyme activity, inhibitor, luminescence		added: 300 µM CDP-star, 100 mM DEA	12.2 ± 0.383 µM
[Cl-].[Cl-].[Cl-].[La+3]	human MMP-2 catalytic domain	inhibitor		pH 7.5, 37 °C, 45 min preincubation, added: DQ-gelatin	9.5 ± 0.24 µM
Clc1ccc(C(c2ccc(Cl)cc2)n2cc[n+](CC(OCc3ccc(Cl)cc3Cl)c3ccc(Cl)cc3Cl)c2)cc1 (stereo not drawn)	KCNK18 (Homo sapiens, UniProt Q7Z418)	ion flux, inhibitor			27.9 µM
Cc1cn([C@H]2C[C@H](N=[N+]=[N-])[C@@H](CO[P@](=O)(O)O[P@](=O)(O)OP(=O)(O)O)O2)c(=O)[nH]c1=O	Gag-Pol polyprotein, reverse transcriptase (gag-pol, Human immunodeficiency virus 1, UniProt P03366)	reverse transcriptase activity, inhibitor, CRISPR-Cas12a fluorescence	Human immunodeficiency virus 1, PBMC lysate	30 min	0.008 µM
Cc1cnc(CNc2cc(N3CCN(S(=O)(=O)c4ccc(F)cc4)CC3)ccc2[N+](=O)[O-])o1	Kir1 channel protein	ion flux, inhibitor, fluorescence			0.147 µM
CC(C)N(C)c1nc2cc(C(=O)O)ccc2nc1-c1ccc(F)cc1	PASK (Homo sapiens, UniProt Q96RG2)	enzyme activity, inhibitor			~0.004 µM
C#CCOc1ccc2c(c1)OC(c1ccccc1)CC2=O (stereo not drawn)	Cytochrome P450 2B1 (Cyp2b1, Rattus norvegicus, UniProt P00176)	enzyme activity, inhibitor	supersomes	added: pentoxyresorufin 5 µM	> 10 µM
Cc1ccc2nc(C(C)C)n(-c3ccc4[nH]ncc4c3)c2n1	GRIA1/CACNG8 (Homo sapiens, UniProt P42261+Q8WXS5)	calcium influx, antagonist, FLIPR	HEK293 expressing GluA1o	added: glutamate 100 µM	0.0113 µM

Molecule	target	test	system	setting	IC50
O=C(O)c1cc(O)c2c(c1)C(=O)c1cccc(O)c1C2=O	ALKBH2 (Homo sapiens, UniProt Q6NS38)	1-methyladenine repair, inhibitor, HPLC		1 h, 37 °C, added: ssDNA 16mer 5 µM	71.1 µM
O=c1cc(-c2ccccc2)[nH]c2ccc3c(ccn3S(=O)(=O)c3ccc(C(F)(F)F)cc3)c12	Tubulin alpha-1B chain/TUBB2B (Bos taurus, UniProt P81947+Q6B856)	tubulin polymerization, turbidimetry		20 min	2.2 to 2.4 µM
COc1cccc2c1c(O)c(C(=O)N(C)c1ccc(C(F)(F)F)cc1)c(=O)n2C	Histone deacetylase 4, with NCoR1 (HDAC4, Homo sapiens, UniProt P56524)	binding to NCoR1, inhibitor, surface plasmon resonance		added: NCoR1	10 µM
COc1cccc(OCC(O)Cn2c(=N)n(Cc3ccccc3)c3ccccc32)c1 (stereo not drawn)	KCNJ13 M125R	ion flux, inhibitor			3.47 µM
[Cl-].[Cl-].[Zn+2]	HVCN1 (Homo sapiens, UniProt Q96D96, D185H/H140A/H193A)	proton current, inhibitor, whole-cell voltage clamp	human cells	pH 6.5, test pulse 100 mV	762 µM
CN1CCN(CCC(=O)Nc2ccc3c(c2)Sc2cccc(-c4cc(=O)cc(N5CCOCC5)o4)c2S3)CC1	MTOR (Homo sapiens, UniProt P42345)	enzyme activity, inhibitor			14 µM
NC(N)=S	Urease	enzyme activity, inhibitor			22.4 µM
CC(=O)SCC(=O)CCCCCNCCCN	hdac10 (Danio rerio, UniProt F1QCV2)	enzyme activity, inhibitor		with preincubation	0.18 µM
Cn1cc(CNCC2CCN(c3ncc(C(=O)NO)cn3)CC2)c2ccccc21	HDAC (Lucilia cuprina egg nuclear extract)	enzyme activity, inhibitor, fluorometric			0.009 µM
CC(C)COc1cccc(CC(=O)N2CCNc3nc(C(F)(F)F)ccc3[C@H]2CC(=O)O)c1	Gastrin-releasing peptide receptor (Rattus norvegicus, UniProt P52500)	ligand displacement, radioligand			> 3 µM
CN(C)c1ccc(O)cn1	PTGS1 (Ovis aries, UniProt P05979)	enzyme activity, inhibitor		pH 8	22 µM
Nc1ncnc2c1ncn2[C@@H]1O[C@H](CSCC[C@H](N)C(=O)O)[C@@H](O)[C@H]1O	Histone-lysine N-methyltransferase 2A, SET domain (KMT2A, Homo sapiens, UniProt Q03164)	FL-NAH displacement, fluorescence polarization		30 min, isolated SET domain, added: 50 nM FL-NAH	4 ± 0.5 µM
CC(C)C[C@H](NC(=O)[C@H](CC(N)=O)NC(=O)[C@H](CC(C)C)NC(=O)[C@@H](NC(=O)[C@@H](NC(=O)[C@@H]1CCCN1C(=O)[C@H](CCCNC(=N)N)NC(=O)[C@H](CCCCN)NC(=O)[C@@H]1CCCN1C(=O)[C@H](CCCNC(=N)N)NC(=O)[C@H](CCCNC(=N)N)NC(=O)[C@H](CCCNC(=N)N)NC(=O)[C@H](CCCNC(=N)N)NC(=O)[C@H](CCC(N)=O)NC(=O)[C@H](CCCNC(=N)N)NC(=O)[C@H](CCCNC(=N)N)NC(=O)[C@H](CCCCN)NC(=O)[C@H](CCCCN)NC(=O)[C@H](CCCNC(=N)N)NC(=O)CNC(=O)[C@@H](N)Cc1ccc(O)cc1)[C@@H](C)O)[C@@H](C)O)C(=O)N[C@@H](Cc1ccccc1)C(N)=O	MAPK8 (Homo sapiens, UniProt P45983)	kinase activity, inhibitor		60 min, pH 7.4, 30 °C, added: 1 µM c-Jun substrate, 1 µM ATP	0.034 ± 0.008 µM
N=c1n(Cc2ccccc2)c2ccccc2n1CC(O)COc1cc(F)cc(F)c1 (stereo not drawn)	Inward rectifier potassium channel 4	ion flux, inhibitor, fluorescence			3.53 µM
Cc1cccc(Cc2nn(C(C)(C)C)c3ncnc(N)c23)c1	EPHB1 (Homo sapiens, UniProt P54762)	phosphorylation in cells, inhibitor, western blot			6.1 µM
Fc1ccccc1NC(=S)N1CCc2ccccc2C1	Urease	enzyme activity, inhibitor, absorbance			24.5 µM
Cc1cc(OCC(O)Cn2c(=N)n(Cc3ccccc3)c3ccccc32)ccc1Br (stereo not drawn)	Inward rectifier potassium channel 4	ion flux, inhibitor, fluorescence			5.1 µM
O=C1Nc2ccc(I)cc2/C1=C/c1cc(Br)c(O)c(Br)c1	LRRK2 (Homo sapiens, UniProt Q5S007)	LRRKtide phosphorylation, inhibitor		25 °C, added: 1 µM ATP	~0.5 µM
COc1ccc(-c2cc(=O)c3c(OC)c(OC)c(OC)c(OC)c3o2)cc1	SLCO2B1 (Homo sapiens, UniProt O94956)	transporter uptake, inhibitor, radiometric	MDCK-II	3 min, pH 6	34 to 40 µM and 20 to 50 µM

For quick reference, copied from above:
Molecule	target	test	system	setting	IC50
Clc1ccc(C(c2ccc(Cl)cc2)n2cc[n+](CC(OCc3ccc(Cl)cc3Cl)c3ccc(Cl)cc3Cl)c2)cc1 (stereo not drawn)	KCNK18 (Homo sapiens, UniProt Q7Z418)	ion flux, inhibitor			27.9 µM
Cn1cc(CNCC2CCN(c3ncc(C(=O)NO)cn3)CC2)c2ccccc21	HDAC (Lucilia cuprina egg nuclear extract)	enzyme activity, inhibitor, fluorometric			0.009 µM
